{"data": "Experimental data from different studies", "note": "A part holds a random share of what one study measured.", "chain of UniProt Q86Z02 (whole entry, looked up)": "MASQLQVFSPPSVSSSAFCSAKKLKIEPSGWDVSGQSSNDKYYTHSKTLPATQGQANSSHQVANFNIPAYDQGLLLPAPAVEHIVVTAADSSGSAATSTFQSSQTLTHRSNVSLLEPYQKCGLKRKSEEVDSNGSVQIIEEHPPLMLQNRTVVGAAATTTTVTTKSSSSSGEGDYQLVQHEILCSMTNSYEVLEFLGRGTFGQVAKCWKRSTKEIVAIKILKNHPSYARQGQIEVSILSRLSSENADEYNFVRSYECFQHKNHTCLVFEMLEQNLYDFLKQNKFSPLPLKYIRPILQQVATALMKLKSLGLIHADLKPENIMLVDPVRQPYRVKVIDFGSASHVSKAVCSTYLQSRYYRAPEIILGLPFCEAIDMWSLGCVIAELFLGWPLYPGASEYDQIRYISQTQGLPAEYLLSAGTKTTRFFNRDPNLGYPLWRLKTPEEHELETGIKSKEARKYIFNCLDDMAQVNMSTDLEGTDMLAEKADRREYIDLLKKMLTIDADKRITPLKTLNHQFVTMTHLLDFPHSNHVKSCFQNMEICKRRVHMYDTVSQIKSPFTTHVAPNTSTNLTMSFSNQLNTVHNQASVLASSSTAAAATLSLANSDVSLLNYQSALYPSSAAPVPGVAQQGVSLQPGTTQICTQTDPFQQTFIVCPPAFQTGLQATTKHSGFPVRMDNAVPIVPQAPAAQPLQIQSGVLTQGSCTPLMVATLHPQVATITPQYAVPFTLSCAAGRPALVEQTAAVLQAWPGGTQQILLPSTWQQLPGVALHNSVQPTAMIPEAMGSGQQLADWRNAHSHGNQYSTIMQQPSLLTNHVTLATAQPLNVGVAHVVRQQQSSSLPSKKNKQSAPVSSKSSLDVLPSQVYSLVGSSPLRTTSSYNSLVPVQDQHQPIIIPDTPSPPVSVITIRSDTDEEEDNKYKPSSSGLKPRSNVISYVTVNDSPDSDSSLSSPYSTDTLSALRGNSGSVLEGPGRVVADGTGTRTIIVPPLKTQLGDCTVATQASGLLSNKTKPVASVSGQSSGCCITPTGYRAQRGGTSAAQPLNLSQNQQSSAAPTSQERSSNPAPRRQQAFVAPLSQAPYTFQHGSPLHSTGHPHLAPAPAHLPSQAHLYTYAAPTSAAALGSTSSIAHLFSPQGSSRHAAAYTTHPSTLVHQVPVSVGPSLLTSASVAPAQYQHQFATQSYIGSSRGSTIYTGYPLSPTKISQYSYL", "chain of UniProt Q00532 (whole entry, looked up)": "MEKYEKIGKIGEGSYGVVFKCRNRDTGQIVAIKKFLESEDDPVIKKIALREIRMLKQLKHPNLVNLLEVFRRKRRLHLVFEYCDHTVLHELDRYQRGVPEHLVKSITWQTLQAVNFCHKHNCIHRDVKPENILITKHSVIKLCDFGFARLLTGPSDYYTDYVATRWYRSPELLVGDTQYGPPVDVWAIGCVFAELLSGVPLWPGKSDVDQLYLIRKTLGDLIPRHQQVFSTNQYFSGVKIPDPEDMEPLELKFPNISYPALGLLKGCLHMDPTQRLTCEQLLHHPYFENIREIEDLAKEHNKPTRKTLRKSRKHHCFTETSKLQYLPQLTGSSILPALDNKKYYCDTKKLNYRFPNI", "chain of UniProt P30530 (whole entry, looked up)": "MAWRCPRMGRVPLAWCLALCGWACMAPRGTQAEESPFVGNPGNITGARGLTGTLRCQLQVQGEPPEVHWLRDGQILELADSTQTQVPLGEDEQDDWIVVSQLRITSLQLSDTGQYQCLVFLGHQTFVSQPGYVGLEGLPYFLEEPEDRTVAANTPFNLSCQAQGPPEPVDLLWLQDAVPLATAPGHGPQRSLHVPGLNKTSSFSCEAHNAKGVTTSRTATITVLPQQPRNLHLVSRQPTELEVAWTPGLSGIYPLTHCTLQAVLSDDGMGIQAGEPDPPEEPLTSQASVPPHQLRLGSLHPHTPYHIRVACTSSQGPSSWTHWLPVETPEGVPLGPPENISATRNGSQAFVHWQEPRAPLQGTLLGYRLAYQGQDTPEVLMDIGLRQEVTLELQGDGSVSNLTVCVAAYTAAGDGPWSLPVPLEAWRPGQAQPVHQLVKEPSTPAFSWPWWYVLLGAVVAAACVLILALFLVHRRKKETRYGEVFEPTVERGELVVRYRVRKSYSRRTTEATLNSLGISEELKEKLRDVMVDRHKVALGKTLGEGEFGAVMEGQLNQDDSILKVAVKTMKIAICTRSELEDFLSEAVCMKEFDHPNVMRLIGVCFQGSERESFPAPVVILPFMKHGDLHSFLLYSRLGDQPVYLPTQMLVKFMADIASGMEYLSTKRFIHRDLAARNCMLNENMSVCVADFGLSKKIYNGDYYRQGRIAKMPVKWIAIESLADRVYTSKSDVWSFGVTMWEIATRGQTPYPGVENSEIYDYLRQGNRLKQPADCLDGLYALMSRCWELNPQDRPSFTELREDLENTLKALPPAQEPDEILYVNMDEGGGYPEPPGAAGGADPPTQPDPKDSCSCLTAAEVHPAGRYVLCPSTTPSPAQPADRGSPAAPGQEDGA", "chain of UniProt P51812 (whole entry, looked up)": "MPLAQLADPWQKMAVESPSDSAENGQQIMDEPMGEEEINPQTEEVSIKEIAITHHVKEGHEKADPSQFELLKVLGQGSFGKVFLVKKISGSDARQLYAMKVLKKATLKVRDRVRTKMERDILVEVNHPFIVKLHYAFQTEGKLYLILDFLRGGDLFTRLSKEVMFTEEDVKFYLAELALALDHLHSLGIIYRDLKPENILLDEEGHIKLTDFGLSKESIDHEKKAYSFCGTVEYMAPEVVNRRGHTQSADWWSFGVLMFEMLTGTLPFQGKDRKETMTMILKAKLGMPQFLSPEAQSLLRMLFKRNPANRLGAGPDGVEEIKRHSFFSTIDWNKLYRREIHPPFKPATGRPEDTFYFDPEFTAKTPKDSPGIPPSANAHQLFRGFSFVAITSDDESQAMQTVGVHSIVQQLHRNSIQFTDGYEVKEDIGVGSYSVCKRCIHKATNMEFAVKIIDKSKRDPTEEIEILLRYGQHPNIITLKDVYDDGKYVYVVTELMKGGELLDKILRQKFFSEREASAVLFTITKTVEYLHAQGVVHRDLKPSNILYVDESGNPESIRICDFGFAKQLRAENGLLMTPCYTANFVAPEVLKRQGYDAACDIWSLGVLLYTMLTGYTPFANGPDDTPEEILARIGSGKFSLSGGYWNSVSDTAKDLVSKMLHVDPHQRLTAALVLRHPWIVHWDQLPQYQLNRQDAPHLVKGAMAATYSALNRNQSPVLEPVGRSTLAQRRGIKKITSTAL", "chain of UniProt Q16644 (whole entry, looked up)": "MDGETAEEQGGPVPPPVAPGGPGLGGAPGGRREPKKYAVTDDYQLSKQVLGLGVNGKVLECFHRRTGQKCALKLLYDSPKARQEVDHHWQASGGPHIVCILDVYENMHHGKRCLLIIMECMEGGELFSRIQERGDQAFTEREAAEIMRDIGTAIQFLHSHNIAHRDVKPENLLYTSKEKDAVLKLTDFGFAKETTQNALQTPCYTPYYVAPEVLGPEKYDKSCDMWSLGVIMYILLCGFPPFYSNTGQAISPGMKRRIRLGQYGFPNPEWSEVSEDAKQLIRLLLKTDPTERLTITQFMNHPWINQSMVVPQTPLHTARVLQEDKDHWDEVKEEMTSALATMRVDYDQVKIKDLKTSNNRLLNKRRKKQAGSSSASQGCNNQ", "chain of UniProt Q9NYY3 (whole entry, looked up)": "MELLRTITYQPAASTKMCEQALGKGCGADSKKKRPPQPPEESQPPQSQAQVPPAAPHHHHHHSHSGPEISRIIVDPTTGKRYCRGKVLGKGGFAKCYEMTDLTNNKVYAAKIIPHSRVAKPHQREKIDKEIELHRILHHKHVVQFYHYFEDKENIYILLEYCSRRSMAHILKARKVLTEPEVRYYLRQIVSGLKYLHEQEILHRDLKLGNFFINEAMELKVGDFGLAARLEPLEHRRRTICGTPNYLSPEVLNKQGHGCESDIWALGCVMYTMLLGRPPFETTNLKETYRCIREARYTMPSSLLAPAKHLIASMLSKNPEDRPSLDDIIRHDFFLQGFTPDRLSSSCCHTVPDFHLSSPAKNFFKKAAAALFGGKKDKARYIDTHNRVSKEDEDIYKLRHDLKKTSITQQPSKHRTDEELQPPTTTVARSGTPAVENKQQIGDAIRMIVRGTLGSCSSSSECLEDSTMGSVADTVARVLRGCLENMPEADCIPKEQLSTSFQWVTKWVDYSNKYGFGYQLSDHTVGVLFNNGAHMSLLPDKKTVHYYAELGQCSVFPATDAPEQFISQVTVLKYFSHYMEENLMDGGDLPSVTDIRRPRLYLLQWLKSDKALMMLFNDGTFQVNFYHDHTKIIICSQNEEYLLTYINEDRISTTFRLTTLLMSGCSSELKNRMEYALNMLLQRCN"}
{"data": "Set 1", "SMILES": "CN([C@@H]1CCc2c(CC(=O)O)c3ccccc3n2C1)S(=O)(=O)c1ccc(F)cc1", "read-out": "cell-free assay", "method": "competition with immobilised ligand", "concentration": "1 µM"}
{"target": "Ribosomal protein S6 kinase alpha-4, C-terminal kinase domain (RPS6KA4, Homo sapiens, UniProt O75676)", "remaining binding [%]": 96}
{"target": "PIK3C2B (Homo sapiens, UniProt O00750)", "remaining binding [%]": 94}
{"target": "ROCK1 (Homo sapiens, UniProt Q13464)", "remaining binding [%]": 34}
{"target": "ERBB3 (Homo sapiens, UniProt P21860)", "remaining binding [%]": 100}
{"target": "LATS2 (Homo sapiens, UniProt Q9NRM7)", "remaining binding [%]": 100}
{"target": "PIK3CD (Homo sapiens, UniProt O00329)", "remaining binding [%]": 95}
{"target": "MAP2K2 (Homo sapiens, UniProt P36507)", "remaining binding [%]": 76}
{"target": "YES1 (Homo sapiens, UniProt P07947)", "remaining binding [%]": 100}
{"target": "Ribosomal protein S6 kinase alpha-3, N-terminal kinase domain (RPS6KA3, Homo sapiens, UniProt P51812)", "remaining binding [%]": 100}
{"target": "PRKG1 (Homo sapiens, UniProt Q13976)", "remaining binding [%]": 100}
{"target": "HIPK1 (Homo sapiens, UniProt Q86Z02)", "remaining binding [%]": 100}
{"target": "BMX (Homo sapiens, UniProt P51813)", "remaining binding [%]": 100}
{"target": "CDKL1 (Homo sapiens, UniProt Q00532)", "remaining binding [%]": 100}
{"target": "PLK2 (Homo sapiens, UniProt Q9NYY3)", "remaining binding [%]": 92}
{"data": "Set 2", "target": "Centromere-binding protein 1, full length, N-terminal tag (CBF1, Saccharomyces cerevisiae, UniProt P17106, residues 1-351)", "method": "protein-binding microarray", "molecule type": "double-stranded DNA, one strand shown", "sample": "in vitro", "concentration": "0.8 µM", "setting": "whole 60-bp probe, no competitor", "direction": "higher = stronger binding", "all sequences stand within": "… GTCTTGATTCGCTTGACGCTGCTG", "chain of UniProt P17106 (whole entry, looked up)": "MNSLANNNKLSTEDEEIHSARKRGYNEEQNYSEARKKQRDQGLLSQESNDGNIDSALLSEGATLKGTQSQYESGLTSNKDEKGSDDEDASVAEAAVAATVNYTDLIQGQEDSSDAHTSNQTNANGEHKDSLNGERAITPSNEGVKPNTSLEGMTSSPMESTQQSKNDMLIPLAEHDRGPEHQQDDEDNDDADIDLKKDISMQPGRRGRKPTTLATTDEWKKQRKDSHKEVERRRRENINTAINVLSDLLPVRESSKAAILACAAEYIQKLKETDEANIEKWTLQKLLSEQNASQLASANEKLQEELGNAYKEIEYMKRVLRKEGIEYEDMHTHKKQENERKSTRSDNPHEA"}
{"Sequence": "GAAGACTTCGAACGTGATATCATTCCAATGGCTTAG", "fluorescence intensity [a.u.]": 966}
{"Sequence": "CTAAAATTATTAGTATCCGTGATTTTAGTACAATTC", "fluorescence intensity [a.u.]": 584}
{"Sequence": "GAAAACTATGGTTGTGACGTAAAAGTGGAGTGCTAG", "fluorescence intensity [a.u.]": 610}
{"Sequence": "GAATCTGTCATCTAGCACGTTTCCCAAATGCTTTAG", "fluorescence intensity [a.u.]": 709}
{"Sequence": "TGTACGAAGCTATCACAGCACGTTATAGTAGTTAGG", "fluorescence intensity [a.u.]": 634}
{"Sequence": "CTAGACAAACAGGGCCAGCTGATGCATATGTTTTTC", "fluorescence intensity [a.u.]": 568}
{"Sequence": "TGTACGAAGCTATACTACGTGACTATAGTAGTTAGG", "fluorescence intensity [a.u.]": 678}
{"Sequence": "CTAATTAAATAGAAATATCACATGGCGATCCACTTC", "fluorescence intensity [a.u.]": 1230}
{"data": "Set 3", "target": "RING finger protein unkempt homolog, zinc fingers 1-6, GST-SBP tag (UNK, Homo sapiens, UniProt Q9C0B0, residues 30-357)", "method": "RNA Bind-n-Seq", "molecule type": "RNA", "sample": "in vitro", "concentration": "not given", "setting": "RNA with constant flanks, human and mouse sites, ends assumed", "baseline": "input RNA pool", "direction": "higher = stronger binding", "all sequences stand within": "GGGAGUUCUACAGUCCGACGAUC … CAACAGAGGAUUGAGCAUCA", "chain of UniProt Q9C0B0 (30-357, looked up)": "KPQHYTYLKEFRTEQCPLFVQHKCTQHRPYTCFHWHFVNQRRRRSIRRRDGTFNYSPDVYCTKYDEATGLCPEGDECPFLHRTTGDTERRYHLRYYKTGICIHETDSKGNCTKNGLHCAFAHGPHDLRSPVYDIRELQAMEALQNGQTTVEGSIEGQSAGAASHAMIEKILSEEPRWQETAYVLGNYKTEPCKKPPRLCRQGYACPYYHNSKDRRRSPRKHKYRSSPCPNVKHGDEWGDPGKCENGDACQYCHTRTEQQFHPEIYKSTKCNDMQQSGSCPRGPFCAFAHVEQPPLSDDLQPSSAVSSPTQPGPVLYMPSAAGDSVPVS"}
{"Sequence": "AUAUCUGAUCAGAUAGUCCCUUCAUUCUGUAGACGUGUAUUGGUUGGUCCAAGACACAGUGAGUAGGAGCUCUGUGGACCAAGACAAAGCUGGACUAGAGAGUACAGUUCAAACUUGGCA", "bound/input enrichment": "0.415 ratio"}
{"Sequence": "CCAGGCCAGGACCACGUGGCCGUGACCAUCCAGCUCCUCCUUAGACGAGGCAACAUCUUCCUCACGUCCUACCAGUACCCCUUCUACGACUGCCGCCAGGCCAUGAGCCUGGAGGAGAAC", "bound/input enrichment": "0.382 ratio"}
{"Sequence": "GAGAGGAAUAUAAUACCAAGAGAAGAAAAGCCUAUUGAGGAUGAAAUUGAAAGAAAAGAAAAUAUUAAGCCCUCUCUGGGAAGUAAAAAGAAUUUAUUAGAAUCUAUACCUACACAUUCU", "bound/input enrichment": "1.74 ratio"}
{"Sequence": "UCAAUAACCUUUUCAGAUGAAAAUGAUGAUCAGGAUUUUGAAUUAUGGGAUGAUGUAGGAUUAAACAUUCCCAAACCCCCAGACUUGUUACAACUUUACCGAGACUUUGGAAAUCAUCAA", "bound/input enrichment": "0.145 ratio"}
{"Sequence": "ACUUAUCUUUUUCUUUUUUCUAACUAAAAUUGUGAUGUUACAGAAAGUCAUUUUAUGUUCCUUUUUUGUCUGAUGAUCCAAUAUUUACUGAACUUUUUGUAAUUGGUGAUAAUUCUUUUU", "bound/input enrichment": "1.44 ratio"}
{"Sequence": "GCUGGAAACGGGCGGCGGCUCCACUUAGGGAUUCCUGAAGCAGUGUUUGUGGAAGAUGUAGAUUCUUUCAUGAAGCAGCCUGGGAAUGAGACUGCAGAUACAGUGUUAAAGAAGCUGGAU", "bound/input enrichment": "0.323 ratio"}
{"Sequence": "GAACACUUGCUACAGGGUCUGCUUCCUGAUGUGCAAGUACCAACAUCUGUAAAAGAUAUGCGCUAUUGCCAGGUUUCAUUCCAAGAUGAUCAUGUGUCUUUGGAAAGUGCGUUUACAGUA", "bound/input enrichment": "0.167 ratio"}
{"Sequence": "UAGAGUGAGGCCUGAGUACUGCCUUGGCCUAGGAUGGCUAGAGAAUUAAGUGAAAGCACAGCCCUGGAUGCCCAGUCUACAGAAGACCAGAUGGAGCUUCUGGUCAUAAAGGUGGAGGAA", "bound/input enrichment": "1.29 ratio"}
{"data": "Set 4", "Compound": "CCCC(=O)Oc1ccc2[nH]c(C(=O)c3cc4ccccc4[nH]3)cc2c1", "read-out": "enzyme activity", "action": "inhibitor", "concentration": "0.5 µM", "baseline": "control"}
{"target": "HIPK4 (Homo sapiens, UniProt Q8NE63)", "remaining activity [%]": 86.3}
{"target": "SRMS (Homo sapiens, UniProt Q9H3Y6)", "remaining activity [%]": 104}
{"target": "HIPK2 (Homo sapiens, UniProt Q9H2X6)", "remaining activity [%]": 92.1}
{"target": "MAPKAPK3 (Homo sapiens, UniProt Q16644)", "remaining activity [%]": 94.3}
{"target": "ABL1 (Homo sapiens, UniProt P00519)", "remaining activity [%]": 100}
{"target": "AXL (Homo sapiens, UniProt P30530)", "remaining activity [%]": 103}
{"target": "DYRK3 (Homo sapiens, UniProt O43781)", "remaining activity [%]": 92.6}
{"note": "A few entries again (set 3):"}
{"Sequence": "CCAGGCCAGGACCACGUGGCCGUGACCAUCCAGCUCCUCCUUAGACGAGGCAACAUCUUCCUCACGUCCUACCAGUACCCCUUCUACGACUGCCGCCAGGCCAUGAGCCUGGAGGAGAAC", "bound/input enrichment": "0.382 ratio"}
{"Sequence": "GAGAGGAAUAUAAUACCAAGAGAAGAAAAGCCUAUUGAGGAUGAAAUUGAAAGAAAAGAAAAUAUUAAGCCCUCUCUGGGAAGUAAAAAGAAUUUAUUAGAAUCUAUACCUACACAUUCU", "bound/input enrichment": "1.74 ratio"}
